Measurements pooled from the literature.
Parts stem from different laboratories: compare values within a part only. Substitutions count along the parent as printed.
Chain of UniProt P9WI81 (whole entry, looked up): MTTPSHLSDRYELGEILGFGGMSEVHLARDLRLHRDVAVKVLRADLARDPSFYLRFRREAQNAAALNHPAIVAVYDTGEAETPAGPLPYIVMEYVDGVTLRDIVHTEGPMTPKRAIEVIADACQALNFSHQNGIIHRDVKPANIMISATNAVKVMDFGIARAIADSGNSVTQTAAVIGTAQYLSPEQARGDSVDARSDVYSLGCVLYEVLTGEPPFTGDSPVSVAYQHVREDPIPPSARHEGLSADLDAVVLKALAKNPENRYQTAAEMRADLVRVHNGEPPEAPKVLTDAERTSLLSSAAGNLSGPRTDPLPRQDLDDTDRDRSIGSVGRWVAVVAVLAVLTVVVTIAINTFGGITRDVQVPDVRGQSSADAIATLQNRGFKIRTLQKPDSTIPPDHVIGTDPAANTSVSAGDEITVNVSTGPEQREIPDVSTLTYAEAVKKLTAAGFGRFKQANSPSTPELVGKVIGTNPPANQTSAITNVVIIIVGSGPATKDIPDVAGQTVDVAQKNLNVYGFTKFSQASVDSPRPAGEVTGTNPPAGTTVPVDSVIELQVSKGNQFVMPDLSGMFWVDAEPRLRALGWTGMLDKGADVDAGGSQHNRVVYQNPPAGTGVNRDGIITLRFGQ
Chain of UniProt Q15375 (whole entry, looked up): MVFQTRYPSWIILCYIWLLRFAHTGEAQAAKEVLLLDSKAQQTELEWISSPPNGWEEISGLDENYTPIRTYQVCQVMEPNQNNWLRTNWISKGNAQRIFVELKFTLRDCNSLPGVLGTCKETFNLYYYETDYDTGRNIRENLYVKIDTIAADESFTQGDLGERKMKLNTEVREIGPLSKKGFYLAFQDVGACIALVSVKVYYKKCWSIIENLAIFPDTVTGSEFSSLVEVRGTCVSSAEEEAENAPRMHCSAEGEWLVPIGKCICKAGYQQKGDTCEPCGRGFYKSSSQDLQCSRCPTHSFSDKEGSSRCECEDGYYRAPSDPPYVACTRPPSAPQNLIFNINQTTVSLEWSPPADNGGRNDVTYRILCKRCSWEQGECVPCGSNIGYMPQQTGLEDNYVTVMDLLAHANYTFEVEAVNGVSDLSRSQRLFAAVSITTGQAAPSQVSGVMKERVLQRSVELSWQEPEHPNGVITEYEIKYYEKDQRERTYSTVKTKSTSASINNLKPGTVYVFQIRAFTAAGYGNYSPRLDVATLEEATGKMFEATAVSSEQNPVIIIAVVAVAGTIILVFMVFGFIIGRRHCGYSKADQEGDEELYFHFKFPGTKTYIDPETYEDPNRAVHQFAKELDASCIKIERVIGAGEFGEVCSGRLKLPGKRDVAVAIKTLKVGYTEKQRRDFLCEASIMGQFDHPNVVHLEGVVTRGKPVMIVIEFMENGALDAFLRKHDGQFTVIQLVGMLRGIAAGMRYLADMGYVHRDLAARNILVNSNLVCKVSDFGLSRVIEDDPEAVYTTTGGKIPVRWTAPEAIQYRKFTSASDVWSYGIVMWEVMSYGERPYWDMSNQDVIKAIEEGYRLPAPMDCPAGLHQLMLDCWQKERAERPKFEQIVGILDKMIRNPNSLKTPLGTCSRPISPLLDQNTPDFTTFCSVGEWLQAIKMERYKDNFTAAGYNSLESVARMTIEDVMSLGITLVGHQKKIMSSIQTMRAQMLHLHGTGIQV
Chain of UniProt Q9Y243 (whole entry, looked up): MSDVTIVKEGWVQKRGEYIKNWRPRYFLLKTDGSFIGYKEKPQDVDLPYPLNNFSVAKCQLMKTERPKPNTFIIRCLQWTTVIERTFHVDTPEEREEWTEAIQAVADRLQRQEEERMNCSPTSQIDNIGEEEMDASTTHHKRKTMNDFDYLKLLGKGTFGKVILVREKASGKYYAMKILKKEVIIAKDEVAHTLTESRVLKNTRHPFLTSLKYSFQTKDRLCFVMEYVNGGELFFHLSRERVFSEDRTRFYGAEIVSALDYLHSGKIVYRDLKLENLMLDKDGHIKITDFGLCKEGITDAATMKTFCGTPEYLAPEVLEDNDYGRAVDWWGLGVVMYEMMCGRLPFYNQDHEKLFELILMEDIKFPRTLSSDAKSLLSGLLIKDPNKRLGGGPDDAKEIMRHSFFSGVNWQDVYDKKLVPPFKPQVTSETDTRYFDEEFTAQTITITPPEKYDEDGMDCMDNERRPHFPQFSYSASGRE

Block 1
Target: CCNF, cyclin fold, Cln2 fusion (human)
Technique: yeast growth competition, sequencing
Sample: yeast
Setting: strong parent motif
Relative to: not given
Reading: higher = stronger binding
Starting sequence: viral docking peptide; YKVKRRLVFGADD
Substitution	normalised enrichment score
YKVKRRLVFGSDD [A11S]	8.61
YKVYRRLVFGADD [K4Y]	9.36
YKVKRYLVFGADD [R6Y]	7.65
YKVTRRLVFGADD [K4T]	8.55
YKVKRRLVFGALD [D12L]	8.84
YQVKRRLVFGADD [K2Q]	8.32
YKVKRDLVFGADD [R6D]	1.28
YKVKRRLVFDADD [G10D]	8.38

Block 2
Target: HLA class I histocompatibility antigen, C alpha chain, allele C*04:01 (Homo sapiens, UniProt P10321)
Effect on: peptide-MHC binding
Molecule type: peptide
Concentration: concentration not given
Sequence	binding
YFDPANGKF	active
FRYEFTAPF	inactive
YPDPVIKV	inactive
YYLIKYLHV	inactive
APRGFRAAF	inactive
RPRCAYLPF	inactive
IPVHPRHPY	inactive
DTDPLPVVF	inactive

Further values, each from its own experiment
SMILES	target	assay	setting	how to read	measurement	value
C=CC(=O)Nc1ccc2[nH]c(=O)n(C3CCN(Cc4ccc(-c5ccc6c(c5)NC(=O)CO6)cc4)CC3)c2c1	AKT3 (Homo sapiens, UniProt Q9Y243)	target engagement in cells, BRET			EC50	9.3 µM
O=C1NC(=O)c2c1c1c3ccccc3n3c1c1c2c2ccccc2n1[C@H]1CC[C@@H]3O1	EPHA7 (Homo sapiens, UniProt Q15375)	enzyme activity, inhibitor	0.5 µM	relative to: control	remaining activity	69.2%
O=C(N1CCS(=O)(=O)CC1)N1C[C@H](c2ccc(OC(F)(F)F)cc2)C[C@H](c2nc(C3CC3)no2)C1	pknB (Mycobacterium tuberculosis, UniProt P9WI81)	cell-free assay, competition with immobilised ligand	1 µM		remaining binding	100%

A few entries again (block 2):
Sequence	binding
YYLIKYLHV	inactive
FRYEFTAPF	inactive
